Assay results from different studies.
Each line is one published result; not all experiments were run side by side. ± gives the spread as reported.
Nicotinic acetylcholine receptor alpha6/alpha3/beta4: Nicotinic acetylcholine receptor alpha6/alpha3/beta4 (Rattus norvegicus, UniProt P04757+P12392+P43143)
Chain of UniProt P12392 (whole entry, looked up): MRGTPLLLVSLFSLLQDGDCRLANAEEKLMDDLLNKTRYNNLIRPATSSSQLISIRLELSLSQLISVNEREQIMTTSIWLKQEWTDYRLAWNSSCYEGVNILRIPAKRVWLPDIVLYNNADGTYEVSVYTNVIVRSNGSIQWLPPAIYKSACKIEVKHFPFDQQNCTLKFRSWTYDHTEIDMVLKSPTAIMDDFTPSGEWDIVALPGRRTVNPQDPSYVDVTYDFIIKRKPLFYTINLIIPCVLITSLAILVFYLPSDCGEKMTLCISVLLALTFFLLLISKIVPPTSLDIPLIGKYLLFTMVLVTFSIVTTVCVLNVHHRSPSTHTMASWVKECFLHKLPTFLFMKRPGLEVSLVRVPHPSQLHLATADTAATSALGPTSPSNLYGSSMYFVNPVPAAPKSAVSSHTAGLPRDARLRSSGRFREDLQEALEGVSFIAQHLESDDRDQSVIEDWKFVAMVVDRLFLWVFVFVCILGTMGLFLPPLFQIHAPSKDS
Chain of UniProt P04757 (whole entry, looked up): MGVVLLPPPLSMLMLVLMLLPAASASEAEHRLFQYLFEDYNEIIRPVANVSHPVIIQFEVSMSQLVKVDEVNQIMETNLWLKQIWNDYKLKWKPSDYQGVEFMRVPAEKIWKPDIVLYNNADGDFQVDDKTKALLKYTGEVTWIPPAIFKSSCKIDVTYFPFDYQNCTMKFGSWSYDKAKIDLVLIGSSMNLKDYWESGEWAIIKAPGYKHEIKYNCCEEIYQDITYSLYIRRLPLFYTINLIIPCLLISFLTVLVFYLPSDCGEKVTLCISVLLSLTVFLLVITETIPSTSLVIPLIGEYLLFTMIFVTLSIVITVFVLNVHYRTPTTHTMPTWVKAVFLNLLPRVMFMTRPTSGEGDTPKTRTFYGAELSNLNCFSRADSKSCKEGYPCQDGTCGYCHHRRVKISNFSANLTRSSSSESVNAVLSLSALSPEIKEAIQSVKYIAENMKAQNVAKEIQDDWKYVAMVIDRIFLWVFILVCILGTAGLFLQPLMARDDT
Chain of UniProt P43143 (whole entry, looked up): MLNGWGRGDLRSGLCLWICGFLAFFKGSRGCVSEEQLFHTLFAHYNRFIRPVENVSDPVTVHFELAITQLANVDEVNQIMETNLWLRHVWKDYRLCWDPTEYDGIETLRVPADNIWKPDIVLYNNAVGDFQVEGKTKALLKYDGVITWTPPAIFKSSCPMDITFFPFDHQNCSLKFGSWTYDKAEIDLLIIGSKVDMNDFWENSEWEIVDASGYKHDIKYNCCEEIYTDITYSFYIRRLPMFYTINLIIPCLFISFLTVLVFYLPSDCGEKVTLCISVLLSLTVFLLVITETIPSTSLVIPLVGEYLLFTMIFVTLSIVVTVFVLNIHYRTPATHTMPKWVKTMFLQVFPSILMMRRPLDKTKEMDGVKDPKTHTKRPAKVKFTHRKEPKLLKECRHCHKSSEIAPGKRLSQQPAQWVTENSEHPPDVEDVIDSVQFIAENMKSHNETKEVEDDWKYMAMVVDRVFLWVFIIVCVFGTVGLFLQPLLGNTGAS
Neuronal acetylcholine receptor; alpha3/beta4: Neuronal acetylcholine receptor; alpha3/beta4 (Rattus norvegicus, UniProt P04757+P12392)
Chain of UniProt P12391 (whole entry, looked up): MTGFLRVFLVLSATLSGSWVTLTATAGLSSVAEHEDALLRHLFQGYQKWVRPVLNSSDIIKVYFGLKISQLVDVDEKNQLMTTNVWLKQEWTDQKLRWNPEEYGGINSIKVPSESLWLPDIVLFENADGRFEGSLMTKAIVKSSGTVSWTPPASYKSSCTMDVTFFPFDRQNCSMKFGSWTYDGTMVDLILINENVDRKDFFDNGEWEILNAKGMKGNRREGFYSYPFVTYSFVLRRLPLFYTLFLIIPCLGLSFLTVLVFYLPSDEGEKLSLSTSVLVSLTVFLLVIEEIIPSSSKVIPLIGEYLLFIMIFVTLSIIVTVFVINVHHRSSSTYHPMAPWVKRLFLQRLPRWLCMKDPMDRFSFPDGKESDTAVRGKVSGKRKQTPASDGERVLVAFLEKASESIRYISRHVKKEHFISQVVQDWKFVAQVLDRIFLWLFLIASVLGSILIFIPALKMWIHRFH
Chain of UniProt P12390 (whole entry, looked up): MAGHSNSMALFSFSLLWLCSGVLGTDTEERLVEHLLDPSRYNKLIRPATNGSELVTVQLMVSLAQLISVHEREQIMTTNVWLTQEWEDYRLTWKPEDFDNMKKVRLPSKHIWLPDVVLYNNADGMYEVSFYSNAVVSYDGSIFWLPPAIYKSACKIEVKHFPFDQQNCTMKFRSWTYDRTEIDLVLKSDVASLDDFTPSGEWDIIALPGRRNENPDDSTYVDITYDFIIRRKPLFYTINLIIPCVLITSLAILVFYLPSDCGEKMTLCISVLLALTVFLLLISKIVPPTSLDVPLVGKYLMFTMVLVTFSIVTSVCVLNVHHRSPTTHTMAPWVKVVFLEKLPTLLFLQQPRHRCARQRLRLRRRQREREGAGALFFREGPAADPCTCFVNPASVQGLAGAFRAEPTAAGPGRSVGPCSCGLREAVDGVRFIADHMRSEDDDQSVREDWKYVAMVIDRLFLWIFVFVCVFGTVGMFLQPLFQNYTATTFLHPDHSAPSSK

`CC[C@H](C)[C@@H]1NC(=O)[C@@H]2CCCN2C(=O)[C@H](CO)NC(=O)[C@H](CCSC)NC(=O)[C@H](C)NC(=O)[C@H](CO)NC(=O)[C@@H]2CSSC[C@H](NC(=O)CN)C(=O)N[C@@H](CSSC[C@@H](C(N)=O)NC1=O)C(=O)N[C@@H](C)C(=O)N[C@@H](Cc1c[nH]cn1)C(=O)N1CCC[C@H]1C(=O)N[C@@H](C(C)C)C(=O)N2` has a Hill slope of 0.87 (Nicotinic acetylcholine receptor alpha6/alpha3/beta4; receptor current, antagonist; rat).
`O=C(N/N=C/c1cc(Br)cc(Br)c1O)c1cccnc1` has a Kd of 71 µM (tpx (Yersinia pseudotuberculosis, UniProt Q66A71)).
The Hill slope of `CC[C@H](C)[C@@H]1NC(=O)[C@@H]2CCCN2C(=O)[C@H](C)NC(=O)[C@H](CCSC)NC(=O)[C@H](C)NC(=O)[C@H](CO)NC(=O)[C@@H]2CSSC[C@H](NC(=O)CN)C(=O)N[C@@H](CSSC[C@@H](C(N)=O)NC1=O)C(=O)N[C@@H](CO)C(=O)N[C@@H](Cc1c[nH]cn1)C(=O)N1CCC[C@H]1C(=O)N[C@@H](C(C)C)C(=O)N2` is reported as 1.03 (Nicotinic acetylcholine receptor alpha6/alpha3/beta4; receptor current, antagonist; rat).
`CCC[C@@H]1NC(=O)[C@H](CC)NC(=O)[C@H](Cc2ccccc2)NC(=O)[C@@H]2CSSC[C@H](NC(=O)CN)C(=O)N[C@@H](CSSC[C@@H](C(N)=O)NC(=O)[C@H](Cc3ccc(O)cc3)NC1=O)C(=O)N[C@@H](CO)C(=O)N[C@@H](Cc1c[nH]cn1)C(=O)N1CCC[C@H]1C(=O)N[C@@H](CC)C(=O)N2` has an inhibition of 75% (Neuronal acetylcholine receptor; alpha3/beta4; cells; 0.01 µM).
`CC(=O)c1cccc(-c2nc(Nc3ccccc3)nc(N3CCOCC3)n2)c1` gave an IC50 of 0.34 µM (SARS-CoV-2).
`CC[C@H](C)[C@@H]1NC(=O)[C@H](CC(=O)O)NC(=O)[C@@H]2CCCN2C(=O)[C@H](CC(N)=O)NC(=O)[C@H](CCC(N)=O)NC(=O)[C@H](CC(C)C)NC(=O)[C@H]([C@@H](C)CC)NC(=O)[C@@H]2CSSC[C@H](NC(=O)[C@@H](N)CC(=O)O)C(=O)N[C@@H](CSSC[C@@H](C(N)=O)NC1=O)C(=O)N[C@@H](CO)C(=O)N[C@@H](C)C(=O)N1CCC[C@H]1C(=O)N1CCC[C@H]1C(=O)N2` has an IC50 of 0.112 µM (Nicotinic acetylcholine receptor alpha6/alpha3/beta2/beta3 (Rattus norvegicus, UniProt P04757+P12390+P12391+P43143); rat cells).
`CCN(CCO)CCCC(C)Nc1ccnc2cc(Cl)ccc12` (centres unmarked) has an IC50 of 1.2 µM (SARS-CoV-2).
`CCC[C@@H]1NC(=O)[C@H](CC)NC(=O)[C@H](Cc2ccccc2)NC(=O)[C@@H]2CSSC[C@H](NC(=O)CN)C(=O)N[C@@H](CSSC[C@@H](C(N)=O)NC(=O)[C@H](Cc3ccc(O)cc3)NC1=O)C(=O)N[C@@H](CO)C(=O)N[C@@H](Cc1c[nH]cn1)C(=O)N1CCC[C@H]1C(=O)N1CCC[C@H]1C(=O)N2` gave a Ki of 0.794 ± 0.065 µM (Neuronal acetylcholine receptor; alpha3/beta4).

For quick reference, copied from above:
`CC(=O)c1cccc(-c2nc(Nc3ccccc3)nc(N3CCOCC3)n2)c1` gave an IC50 of 0.34 µM (SARS-CoV-2).
